Results gathered from unrelated publications.
Numbered parts are unrelated; each lists some results of a single study. Several values in a cell are separate wells, animals, samples, runs or records.
Sequence of UniProt Q99640 (whole entry, looked up): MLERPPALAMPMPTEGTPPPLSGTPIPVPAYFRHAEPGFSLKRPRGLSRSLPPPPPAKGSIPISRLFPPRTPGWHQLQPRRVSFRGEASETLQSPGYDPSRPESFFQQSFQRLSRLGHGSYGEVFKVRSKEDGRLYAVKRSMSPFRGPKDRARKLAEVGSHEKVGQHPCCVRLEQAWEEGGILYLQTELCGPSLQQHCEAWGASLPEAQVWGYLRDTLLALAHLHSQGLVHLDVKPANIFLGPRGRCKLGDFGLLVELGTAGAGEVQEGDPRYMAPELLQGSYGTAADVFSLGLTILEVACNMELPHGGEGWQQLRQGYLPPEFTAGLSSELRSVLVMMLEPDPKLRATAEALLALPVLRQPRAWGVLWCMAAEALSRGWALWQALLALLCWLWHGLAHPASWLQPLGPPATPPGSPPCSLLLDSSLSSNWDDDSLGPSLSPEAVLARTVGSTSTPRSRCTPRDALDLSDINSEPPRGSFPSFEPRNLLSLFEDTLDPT

Sample 1 — effect on: thermal unfolding; technique: differential scanning fluorimetry; tested at: 5.5 µM; reading: higher = more unfolded
Compound: C[C@@H]1CN(c2ccc(-c3cc(C(=O)NCCOCCOCCOCCOCCNC(=O)/C=C/c4[nH]cc(C(=O)N[C@@H](CC(N)=O)c5ccc(F)c(Cl)c5)c4-c4ccc(Cl)cc4F)ccc3F)cc2NC(=O)c2c[nH]c(=O)cc2C(F)(F)F)C[C@H](C)N1C
WDR5: WD repeat-containing protein 5 (WDR5, Homo sapiens, UniProt P61964)
DCAF1: DDB1- and CUL4-associated factor 1 (DCAF1, Homo sapiens, UniProt Q9Y4B6)
Sequence of UniProt Q9Y4B6 (whole entry, looked up): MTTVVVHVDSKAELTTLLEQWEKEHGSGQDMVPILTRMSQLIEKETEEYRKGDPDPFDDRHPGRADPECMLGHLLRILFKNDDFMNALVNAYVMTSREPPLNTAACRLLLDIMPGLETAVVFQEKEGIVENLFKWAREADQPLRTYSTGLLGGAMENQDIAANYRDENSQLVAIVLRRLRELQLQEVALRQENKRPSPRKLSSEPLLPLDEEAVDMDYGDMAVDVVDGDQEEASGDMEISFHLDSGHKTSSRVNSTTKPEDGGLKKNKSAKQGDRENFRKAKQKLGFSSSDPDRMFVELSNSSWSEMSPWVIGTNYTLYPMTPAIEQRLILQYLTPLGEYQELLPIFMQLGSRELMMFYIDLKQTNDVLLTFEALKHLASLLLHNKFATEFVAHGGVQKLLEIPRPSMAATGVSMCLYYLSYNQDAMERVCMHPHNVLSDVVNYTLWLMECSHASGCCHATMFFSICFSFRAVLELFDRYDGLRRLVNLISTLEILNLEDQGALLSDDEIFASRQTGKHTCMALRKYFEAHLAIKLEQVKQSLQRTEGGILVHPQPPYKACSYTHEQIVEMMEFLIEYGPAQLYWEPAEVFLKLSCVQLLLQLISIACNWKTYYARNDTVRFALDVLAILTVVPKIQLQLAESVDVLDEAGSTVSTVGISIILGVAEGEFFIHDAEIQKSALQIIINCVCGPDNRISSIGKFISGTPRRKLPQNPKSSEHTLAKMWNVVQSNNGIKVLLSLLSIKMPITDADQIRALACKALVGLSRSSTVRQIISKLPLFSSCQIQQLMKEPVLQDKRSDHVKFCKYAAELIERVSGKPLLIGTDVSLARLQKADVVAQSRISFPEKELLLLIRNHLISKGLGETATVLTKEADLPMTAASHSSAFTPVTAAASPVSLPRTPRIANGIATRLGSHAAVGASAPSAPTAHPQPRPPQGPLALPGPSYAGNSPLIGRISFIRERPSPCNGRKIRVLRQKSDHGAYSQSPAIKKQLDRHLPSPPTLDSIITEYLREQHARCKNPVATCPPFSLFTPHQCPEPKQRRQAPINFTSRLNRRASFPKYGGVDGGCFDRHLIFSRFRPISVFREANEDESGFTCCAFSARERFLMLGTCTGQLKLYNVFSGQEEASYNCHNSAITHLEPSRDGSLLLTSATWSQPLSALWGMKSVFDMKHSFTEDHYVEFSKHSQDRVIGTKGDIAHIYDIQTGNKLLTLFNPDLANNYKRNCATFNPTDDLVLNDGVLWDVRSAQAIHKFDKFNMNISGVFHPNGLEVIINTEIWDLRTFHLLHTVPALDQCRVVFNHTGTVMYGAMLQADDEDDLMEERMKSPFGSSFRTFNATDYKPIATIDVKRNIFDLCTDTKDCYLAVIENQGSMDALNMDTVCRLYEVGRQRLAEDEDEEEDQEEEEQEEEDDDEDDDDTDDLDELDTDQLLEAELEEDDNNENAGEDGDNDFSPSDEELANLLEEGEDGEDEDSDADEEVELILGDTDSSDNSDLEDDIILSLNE
| target | temperature | SYPRO Orange fluorescence [a.u.] |
| --- | --- | --- |
| WDR5 | 46.8 °C | 15700 |
| WDR5 | 28 °C | 12900 |
| DCAF1 | 37 °C | 10600 |
| WDR5 | 41.4 °C | 14400 |
| WDR5 | 35.4 °C | 13300 |
| WDR5 | 81.61 °C | 45000 |
| DCAF1 | 28 °C | 9010 |
| DCAF1 | 57.81 °C | 30500 |

Sample 2
SMILES: Cc1ncsc1-c1ccc(C(CO)NC(=O)C2CC(O)CN2C(=O)C(C(C)C)n2cc(-c3ccc(COc4c(-c5c(C)c(F)cc6[nH]ncc56)c(C5CC5)cc5c(N6CC7CC6CN7)nc(OC6CCOCC6)nc45)cc3)nn2)cc1 (centres unmarked)
| host | route | dose | time | tumour volume |
| --- | --- | --- | --- | --- |
| mouse, PK-59 xenograft | subcutaneous | 30 mg/kg once daily | day 8 | 84.2 mm3 and 78.9 mm3 and 107 mm3 and 95 mm3 and 85.8 mm3 |
| mouse, lung LXFA sample B PDX | – | 30 mg/kg twice weekly | day 14 | 42 mm3 and 67.8 mm3 and 26.5 mm3 and 129 mm3 and 133 mm3 and 49.6 mm3 and 52.7 mm3 and 98.1 mm3 |
| mouse, PK-59 xenograft | subcutaneous | 30 mg/kg once daily | day 1 | 100 mm3 and 118 mm3 and 134 mm3 and 123 mm3 and 103 mm3 |
| mouse, PK-59 xenograft | – | 0.3 mg/kg | day 4 | 485 mm3 and 607 mm3 and 521 mm3 and 484 mm3 and 494 mm3 |
| mouse, PK-59 xenograft | subcutaneous | 30 mg/kg once daily | day 15 | 45.5 mm3 and 44.5 mm3 and 47.9 mm3 and 61.3 mm3 and 44 mm3 |
| mouse, PK-59 xenograft | – | 30 mg/kg | day 17 | 81.5 mm3 and 88.3 mm3 and 135 mm3 and 114 mm3 and 94.4 mm3 |

Sample 3 — cell line: U-87 MG; tested at: concentration not given; relative to: DMSO
Structure (SMILES): CCN1/C(=C/C=C2\CCCC(/C=C/C3=[N+](CC)c4ccccc4C3(C)C)=C2NCCCCCCCCN2CCC(Nc3nc4ccccc4n3Cc3ccc(F)cc3)CC2)C(C)(C)c2ccccc21
| measured | log2 fold change |
| --- | --- |
| BIRC5 mRNA | -1.66 |
| FANCL mRNA | -0.932 |
| SERP1 mRNA | 1.24 |
| RAB3D mRNA | -0.82 |
| CCDC15 mRNA | -1.16 |
| OBSL1 mRNA | -1.04 |
| CASP6 mRNA | -0.812 |
| HAS1 mRNA | -1.35 |
| IFITM10 mRNA | -1.12 |
| SEC16B mRNA | -2.65 |
| PAGR1 mRNA | -1.03 |

Single results of other studies
| SMILES | tested on | assay | system | conditions | measurement | result |
| --- | --- | --- | --- | --- | --- | --- |
| Cc1ccc(O)c(C)c1-c1cnc2[nH]c(-c3cnc(N4CCC(CCN5CCN(c6ccc(NC7CCC(=O)NC7=O)cc6F)CC5)CC4)nc3)cc2c1C#N (centres unmarked) | – | – | CD-1 mouse | oral, 60 mg/kg, 24 h | plasma concentration | not detected |
| Cc1ccc(O)c(C)c1-c1cnc2[nH]c(-c3cnc(N4CCC5(CC4)CC(N4CCN(c6ccc(N[C@H]7CCC(=O)NC7=O)cc6F)CC4)CO5)nc3)cc2c1C#N (single isomer, unassigned) | – | – | mouse HCC1569 xenograft | oral, 40 mg/kg twice daily, 21 days | tumour growth inhibition | 35.1% |
| Cc1ccc(O)c(C)c1-c1cnc2[nH]c(-c3cnc(N4CCC5(CC4)CC(N4CCN(c6cc7c(cc6F)c(N6CCC(=O)NC6=O)nn7C)CC4)CO5)nc3)cc2c1C#N (racemic) | PKMYT1 (Homo sapiens, UniProt Q99640) | binding, HTRF | – | 37.04 nM | inhibition | 94.5% and 93.8% |
| Cc1ccc(O)c(C)c1-c1cnc2[nH]c(-c3cnc(N4CCC(CN5CCN(c6ccc(NC7CCC(=O)NC7=O)cc6F)CC5)CC4)nc3)cc2c1C#N (centres unmarked) | – | – | Beagle dog, male, plasma | oral, 5 mg/kg, intravenous and oral dosing | oral bioavailability | 9.4% |
